Assay results collected from several papers.
Compare with care: the assays were run in different laboratories.
Target: Muscle, skeletal receptor tyrosine-protein kinase (MUSK, Homo sapiens, UniProt O15146)

Compound	assay	conditions	how to read	endpoint	result
C=CC(=O)Nc1cccc(-c2cnc3[nH]cc(C(=O)NC(C)(C)C)c3n2)c1	enzyme activity, inhibitor	0.1 µM		inhibition	8%
CNC(=O)C[C@H](Cc1ccc(C#N)cc1)NC(=O)c1cc(-c2ccc(CN[C@H](C)c3ccc(C)cc3)o2)ccc1Cl	enzyme activity, inhibitor	1 µM		activity vs control	87%
C=CC(=O)N1CCCC(n2c(=O)c3ncccc3n(Cc3ccc(Oc4ccccc4)cc3)c2=O)C1 (stereo not drawn)	cell-free assay, competition with immobilised ligand	1 µM		remaining binding	99%
C=CC(=O)N1Cc2nc(-c3cc(-c4cc(Cl)cnc4Cl)c(F)cc3F)n(-c3ccncn3)c2C1	cell-free assay, inhibitor	1 µM		inhibition	11.2%
CN1CCN(Cc2ccc(-c3ccc(CO[C@H]4CCC[C@@H]4NC(=O)c4cc(-c5cnn(C)c5)cnc4N)cc3)cc2)CC1	enzyme activity, inhibitor	0.1 µM		inhibition	9%
Cc1cccc(O[C@H]2CCC[C@@H](C(C)CNCc3ccncc3)C2)c1 (relative stereo)	enzyme activity, inhibitor	10 µM		inhibition	-3%
CCn1cc(C(=O)O)c(=O)c2c(N)c(F)c(NC3CCCCC3)cc21	kinase activity	0.1 µM, together with: ATP at Km		inhibition	-6.4%
C=CC(=O)N1CCc2ccc(-n3c(=O)ccc4cnc5ccc(-c6cnn(C)c6)cc5c43)cc21	KINOMEscan	1 µM	baseline: DMSO control	remaining binding	100%
COc1ccc(NC(=O)Nc2ccc3c(c2)C(=O)N(C(C)CO)CC(C)C(CN(C)Cc2ccc4c(c2)OCO4)O3)cc1 (stereo not drawn)	kinase activity, KinaseProfiler	0.03 µM, species human	baseline: control	remaining activity	95%
NC(=O)C[C@H]1CCc2sc3ncnc(O[C@H]4CC[C@H](N5CCOCC5)CC4)c3c21	enzyme activity, inhibitor	10 µM		inhibition	14%
COc1cc(Nc2nccc(-c3cnn4nc(OC)ccc34)n2)cc(C(F)(F)F)c1	binding, competition with immobilised ligand	1 µM		remaining binding	93%
CNC1C[S+]2CC[S+]3CC[S+](C1)[Ru-4]321([N]=C=S)[n]2c3ccc(OC)cc3c3c4c(c5cc(F)c[n+]1c5c32)C(=O)NC4=O (stereo not drawn)	KinomeScan	0.1 µM	baseline: untreated	remaining binding	88%
CCN1CCN(Cc2ccc(NC(=O)c3ccc(C)c(NC(=O)c4cncc(-c5cccs5)c4)c3)cc2C(F)(F)F)CC1	binding, competition with immobilised ligand	1 µM		remaining binding	3%
Nc1ncc(-c2cc(-c3cnn(CC(F)(F)F)c3)ncc2F)nc1C(=O)NC1CNCC(F)C1 (stereo not drawn)	enzyme activity	1 µM	baseline: DMSO control	remaining activity	86.4%
O=C(Cc1ccc(OCc2ccccc2)cc1)NC1(C(=O)O)CCN(C(=O)c2ccc(-c3cccc(Cl)c3)cc2)CC1	enzyme activity, inhibitor	10 µM		activity vs control	91%

Some of these lines once more:
Compound	assay	conditions	how to read	endpoint	result
CNC(=O)C[C@H](Cc1ccc(C#N)cc1)NC(=O)c1cc(-c2ccc(CN[C@H](C)c3ccc(C)cc3)o2)ccc1Cl	enzyme activity, inhibitor	1 µM		activity vs control	87%
Cc1cccc(O[C@H]2CCC[C@@H](C(C)CNCc3ccncc3)C2)c1 (relative stereo)	enzyme activity, inhibitor	10 µM		inhibition	-3%
